Measurements pooled from the literature.
Every numbered part comes from another study and shows a few of its results, in no order.

Block 1
Target: Interferon regulatory factor 7, full length, phosphomimetic (IRF7, Homo sapiens, UniProt Q92985, residues 1-503, S101K/S471D/S472D/S475D/S476D/S477D/S483D/S484D/S487D)
Technique: protein-binding microarray
Molecule type: double-stranded DNA, one strand shown
Sample: in vitro
Concentration: 250 nM
Notes: 60-bp whole probe
With: salmon DNA 0.4 mg/ml
Reference: random background probes
Reading: higher = stronger binding
Construct (chain): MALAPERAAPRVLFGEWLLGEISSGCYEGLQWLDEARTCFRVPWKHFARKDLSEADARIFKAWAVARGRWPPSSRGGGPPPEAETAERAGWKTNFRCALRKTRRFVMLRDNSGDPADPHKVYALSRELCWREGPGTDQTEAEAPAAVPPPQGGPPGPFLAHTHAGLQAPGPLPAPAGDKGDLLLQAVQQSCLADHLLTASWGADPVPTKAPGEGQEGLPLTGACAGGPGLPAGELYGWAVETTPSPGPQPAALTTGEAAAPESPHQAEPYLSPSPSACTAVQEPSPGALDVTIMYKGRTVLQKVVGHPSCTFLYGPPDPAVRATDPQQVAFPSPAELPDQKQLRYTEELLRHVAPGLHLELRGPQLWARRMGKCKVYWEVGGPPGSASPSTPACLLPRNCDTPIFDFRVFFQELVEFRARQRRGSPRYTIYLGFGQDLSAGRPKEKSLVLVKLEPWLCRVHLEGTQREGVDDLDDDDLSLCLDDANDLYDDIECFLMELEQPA
`GCCTAGCACGACGGTTTCCTACTGCGGACGTGCTAGGTCTTGATTCGCTTGACGCTGCTG` gave a log fluorescence of 1.76 z-score.
`GCCTAGCACGACGGTATCGACTATCGGGCCGTGCTAGTCTTGATTCGCTTGACGCTGCTG` has a log fluorescence of -0.436 z-score.
For `GCCTAGCACTTTACTTTCTGAATGCCCTCGTGCTAGGTCTTGATTCGCTTGACGCTGCTG`, the log fluorescence was 1.46 z-score.

Block 2
Target: Phosphate system positive regulatory protein PHO4, full length, GST-tagged (PHO4, Saccharomyces cerevisiae, UniProt P07270, residues 1-312)
Technique: competition protein-binding microarray
Molecule type: double-stranded DNA, one strand shown
Sample: in vitro
Concentration: 2 µM
Notes: whole 60-bp probe, lowest competitor level
With: Cbf1 competitor, 0.05 µM
Reading: higher = stronger binding
Shared flanks, not repeated: … GTCTTGATTCGCTTGACGCTGCTG
Residues (chain): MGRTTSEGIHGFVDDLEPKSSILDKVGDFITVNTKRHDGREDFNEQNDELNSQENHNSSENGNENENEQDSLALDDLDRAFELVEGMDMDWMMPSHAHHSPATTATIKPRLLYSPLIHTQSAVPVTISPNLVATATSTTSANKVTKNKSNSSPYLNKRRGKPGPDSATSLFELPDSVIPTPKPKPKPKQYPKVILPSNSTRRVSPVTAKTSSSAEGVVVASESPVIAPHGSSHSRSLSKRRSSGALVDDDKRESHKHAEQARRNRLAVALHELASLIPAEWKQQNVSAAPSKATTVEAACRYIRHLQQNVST
The fluorescence intensity of `CTACATATGTGCAAGCAGGTGACGCTTTACCCTTGA` is reported as 5010 a.u.
`TGCGCAACAACTTTTCACGTGTAGTTATGTCTAGAA` gave a fluorescence intensity of 12300 a.u.
The fluorescence intensity of `TGGCGTTCGACGACTCATGTGTGTTAGATTGGGACA` is reported as 7120 a.u.
`TATTGCAGCTGGTCCCACGTGGGTAAGCGGTTGGCG` gave a fluorescence intensity of 20800 a.u.
`GACAAAAAAGCAGGGCACATGTCAAACTCTTGGAAA` gave a fluorescence intensity of 13200 a.u.
`GTGAGCGAAGAGGTTAATGATATCTTCGATTATTTG` gave a fluorescence intensity of 3670 a.u.
With `GATCAGTTTTCCACATCCGTGATGGGGCGCAAATTA` the fluorescence intensity was 4480 a.u.

Block 3
Target: TAR DNA-binding protein 43, full length, His tag (TARDBP, Homo sapiens, UniProt Q13148, residues 1-414)
Technique: RNA Bind-n-Seq
Molecule type: RNA
Sample: in vitro
Concentration: 20 nM
Notes: 6-mer, flanks averaged, single round
With: 150 mM LiCl
Reference: input library
Reading: higher = stronger binding
`CUCGCC` — result for “6-mer enrichment (R)”: 0.877.
For `CAGGCA`, “6-mer enrichment (R)” read 0.895.
Under “6-mer enrichment (R)”, `CGGAUA` is recorded as 0.893.
For `GGCGUA`, “6-mer enrichment (R)” read 1.01.
For `GUAGUG`, “6-mer enrichment (R)” read 1.34.

Further values, each from its own experiment
For `PhoQ, residues 284 288 289 292 302 303 SLANKL`, the fold induction was 14.4 (PhoP, residues 12 14 15 18 19 HEGLL (Escherichia coli, UniProt P23836); Sort-seq, item: YFP reporter; E. coli; PhoQ-PhoP variant library, with: 10 µM Mg2+; reference: high Mg2+ state, higher = stronger signaling).
